{"data": "Measurements gathered from unrelated publications", "note": "Compare with care: the assays were run in different laboratories. Values joined by “and” are separate records of one study, mostly repeats; a detail may differ. Numbers after ± are the reported error."}
{"SMILES": "O=C1NC2(CC2)COc2ncc(F)cc2[C@H]2COCCN2c2ccn3ncc1c3n2", "system": "Sprague-Dawley rat, female, brain", "setting": "oral, 5 mg/kg/day, 4 weeks", "endpoint": "organ weight", "result": "1.93 ± 0.125 g"}
{"SMILES": "CC(=O)NCCCC[C@@H]1NC(=O)[C@H](Cc2c[nH]c3c(C)cccc23)NC(=O)[C@H]([C@@H](C)O)NC(=O)[C@H](CC(N)=O)NC(=O)[C@@H](NC(C)=O)C(C)(C)SSC(C)(C)[C@@H](C(=O)N[C@@H](Cc2ccc(OCCN)cc2)C(=O)N[C@@H](Cc2ccc3ccccc3c2)C(=O)NC2(C(=O)N[C@@H](CCC(=O)O)C(=O)N[C@@H](CC(N)=O)C(=O)N[C@@H](Cc3cccnc3)C(=O)N(C)CC(N)=O)CCOCC2)NC1=O", "test": "equilibrium dialysis", "system": "albumin plus glycoprotein", "setting": "0.1 µM, albumin 4%, glycoprotein 0.07%", "endpoint": "protein binding", "result": "25.8 ± 3.2%"}
{"SMILES": "NC1CCN(C(=O)Oc2ccc(C3CCCC4(C3)OOC3(O4)C4CC5CC(C4)CC3C5)cc2)CC1 (racemic)", "system": "male mouse, plasma", "setting": "intravenous, 10 mg/kg", "endpoint": "Vd", "result": "22.7 L/kg"}
{"SMILES": "COc1cnc2cccc(N3CCc4c(cc(Cn5ccnc5)cc4-c4cn(C)nc4C(F)(F)F)C3=O)c2c1", "system": "CD-1 mice", "setting": "intraperitoneal, 150 mg/kg once daily, day 3", "endpoint": "body weight", "result": "29.7 ± 2 g"}
{"SMILES": "CC[C@H](C)[C@H](NC(=O)[C@H](CCCCN)NC(=O)CNC(=O)[C@H](CC(C)C)NC(=O)[C@H](Cc1ccccc1)NC(=O)[C@H](CCCCN)NC(=O)[C@H](CO)NC(=O)[C@H](Cc1ccccc1)NC(=O)[C@H](Cc1c[nH]c2ccccc12)NC(=O)[C@H](CCC(N)=O)NC(=O)[C@@H](NC(=O)[C@H](Cc1ccccc1)NC(=O)CCCCCNC(=O)CN1CCN(CC(=O)O)CCN(CC(=O)O)CCN(CC(=O)O)CC1)C(C)C)C(=O)N[C@@H](CCC(=O)O)C(=O)N1CCC[C@H]1C(=O)N[C@@H](CC(=O)O)C(=O)N[C@H](C(=O)N[C@@H](CO)C(=O)N[C@@H](CCC(N)=O)C(=O)N[C@H](C(=O)N[C@@H](CCC(N)=O)C(=O)N[C@@H](CC(=O)O)C(=O)N1CCC[C@H]1C(=O)N[C@@H](CC(N)=O)C(=O)N[C@@H](CC(=O)O)C(=O)N[C@@H](CCC(N)=O)C(=O)N[C@@H](Cc1ccc(O)cc1)C(=O)N[C@@H](CCC(=O)O)C(=O)N1CCC[C@H]1C(=O)N[C@@H](Cc1ccccc1)C(=O)O)C(C)C)C(C)C [copper-64 labelled]", "system": "C57BL/6 mice, liver", "setting": "vehicle, intratracheal instillation", "endpoint": "tissue uptake", "result": "9.81 ± 0.5 %ID/g"}
{"SMILES": "Cc1ccc(OCCN(C)C)cc1C(=O)N[C@H](C)c1cc(-c2ccco2)nc2ccccc12", "tested on": "Vero E6", "setting": "125 µM", "endpoint": "viability", "result": "-3.46% and 4.23%"}
{"SMILES": "CCN(CCCCOc1ccc(CCC(=O)N2CCC(Cc3ccccc3)CC2)cc1OC)Cc1ccccc1", "system": "Sprague-Dawley rats, both sexes, urine", "setting": "oral gavage, 25 mg/kg, 0 to 48 h", "scale": "baseline: dose", "endpoint": "excretion rate", "result": "0.0573 ± 0.0083%"}
{"SMILES": "CCCCCCCCCCCCCCCC(=O)N[C@@H](CCC(=O)NCCOCCOCCC(=O)NCCOCCOCCC(=O)NCCCC[C@H](NC(=O)[C@H](CC(=O)O)NC(=O)[C@H](CC(C)C)NC(=O)[C@H](Cc1ccc(O)cc1)NC(=O)[C@H](CCCCN)NC(=O)[C@H](CO)NC(=O)[C@H](Cc1ccc(O)cc1)NC(=O)[C@H](CC(=O)O)NC(=O)[C@H](CO)NC(=O)[C@@H](NC(=O)[C@H](Cc1ccccc1)NC(=O)[C@@H](NC(=O)CNC(=O)[C@H](CCC(N)=O)NC(=O)[C@@H](CO)NC(=O)[C@@H](N)Cc1c[nH]cn1)[C@@H](C)O)[C@@H](C)O)C(=O)N[C@@H](CCCNC(=N)N)C(=O)N[C@@H](CCCNC(=N)N)C(=O)N[C@@H](C)C(=O)N[C@@H](CCC(N)=O)C(=O)N[C@@H](CC(=O)O)C(=O)N[C@@H](Cc1ccccc1)C(=O)N[C@H](C(=O)N[C@@H](CCC(N)=O)C(=O)N[C@@H](Cc1c[nH]c2ccccc12)C(=O)N[C@@H](CC(C)C)C(=O)N[C@@H](CC(C)C)C(=O)N[C@@H](CC(N)=O)C(=O)N[C@H](C(=O)NCC(=O)NCC(=O)N1CCC[C@H]1C(=O)N[C@@H](CO)C(=O)N[C@@H](CO)C(=O)NCC(=O)N[C@@H](C)C(=O)N1CCC[C@H]1C(=O)N1CCC[C@H]1C(=O)N1CCC[C@H]1C(=O)N[C@@H](CO)C(N)=O)[C@@H](C)O)C(C)C)C(=O)O", "test": "measured: AST", "system": "rhesus monkey, male", "setting": "subcutaneous, 60 µg/kg once daily, 28 days", "endpoint": "serum enzyme activity", "result": "45.9 ± 9.2 U/L"}
{"SMILES": "CC(C)C[C@H](NC(=O)[C@H](CCCNC(=N)N)NC(=O)[C@H](Cc1ccccc1)NC(=O)[C@H](Cc1ccccc1)NC(=O)[C@@H](N)[C@@H](C)O)C(=O)N[C@@H](Cc1ccccc1)C(=O)N[C@@H](CC(N)=O)C(=O)N[C@@H](CCCNC(=N)N)C(=O)N[C@@H](C)C(=O)N[C@@H](CCCCN)C(=O)N[C@@H](CCCNC(=N)N)C(=O)N[C@@H](Cc1c[nH]cn1)C(=O)N[C@@H](Cc1c[nH]cn1)C(=O)NCC(=O)N[C@@H](Cc1ccc(O)cc1)C(=O)N[C@@H](CCCCN)C(=O)N[C@@H](CCCNC(=N)N)C(=O)N[C@@H](CCCCN)C(=O)N[C@@H](Cc1ccccc1)C(=O)N[C@@H](Cc1c[nH]cn1)C(=O)O", "test": "HPLC-UV", "system": "human saliva", "setting": "2 h, 37 °C, with: initial 1 mg/mL", "endpoint": "peptide concentration", "result": "0.498 mg/mL"}
{"SMILES": "CSCC[C@H](N)C(=O)N[C@@H](C)C(=O)N[C@@H](Cc1c[nH]c2ccccc12)C(=O)N[C@@H](Cc1c[nH]cn1)C(=O)N[C@@H](CC(=O)O)C(=O)N[C@@H](CC(=O)O)C(=O)N[C@@H](CCC(=O)O)C(=O)N[C@@H](CCC(=O)O)C(=O)N[C@@H](Cc1ccccc1)C(=O)N[C@@H](C)C(=O)N[C@@H](CCCNC(=N)N)C(=O)N[C@@H](CCCNC(=N)N)C(=O)N[C@@H](CCCNC(=N)N)C(=O)N[C@@H](CCCNC(=N)N)C(=O)NCCCCCC(=O)NCCCCC(NC(=O)CCCCCNC(=O)[C@H](CCCNC(=N)N)NC(=O)[C@H](CCCNC(=N)N)NC(=O)[C@H](CCCNC(=N)N)NC(=O)[C@H](CCCNC(=N)N)NC(=O)[C@H](C)NC(=O)[C@H](Cc1ccccc1)NC(=O)[C@H](CCC(=O)O)NC(=O)[C@H](CCC(=O)O)NC(=O)[C@H](CC(=O)O)NC(=O)[C@H](CC(=O)O)NC(=O)[C@H](Cc1c[nH]cn1)NC(=O)[C@H](Cc1c[nH]c2ccccc12)NC(=O)[C@H](C)NC(=O)[C@@H](N)CCSC)C(=O)NCCCCC(NC(=O)C(CCCCNC(=O)CCCCCNC(=O)[C@H](CCCNC(=N)N)NC(=O)[C@H](CCCNC(=N)N)NC(=O)[C@H](CCCNC(=N)N)NC(=O)[C@H](CCCNC(=N)N)NC(=O)[C@H](C)NC(=O)[C@H](Cc1ccccc1)NC(=O)[C@H](CCC(=O)O)NC(=O)[C@H](CCC(=O)O)NC(=O)[C@H](CC(=O)O)NC(=O)[C@H](CC(=O)O)NC(=O)[C@H](Cc1c[nH]cn1)NC(=O)[C@H](Cc1c[nH]c2ccccc12)NC(=O)[C@H](C)NC(=O)[C@@H](N)CCSC)NC(=O)CCCCCNC(=O)[C@H](CCCNC(=N)N)NC(=O)[C@H](CCCNC(=N)N)NC(=O)[C@H](CCCNC(=N)N)NC(=O)[C@H](CCCNC(=N)N)NC(=O)[C@H](C)NC(=O)[C@H](Cc1ccccc1)NC(=O)[C@H](CCC(=O)O)NC(=O)[C@H](CCC(=O)O)NC(=O)[C@H](CC(=O)O)NC(=O)[C@H](CC(=O)O)NC(=O)[C@H](Cc1c[nH]cn1)NC(=O)[C@H](Cc1c[nH]c2ccccc12)NC(=O)[C@H](C)NC(=O)[C@@H](N)CCSC)C(N)=O (stereo partly drawn)", "system": "C57BL/6 mouse female, pancreas", "setting": "dose not given, 6 h", "scale": "baseline: total", "endpoint": "mean tissue distribution", "result": "0.78%"}
{"SMILES": "Cc1ccc(OCCN(C)C)cc1C(=O)N[C@H](C)c1cc(-c2cnn(C(C)C)c2)nc2ccccc12", "tested on": "Vero E6", "setting": "15.62 µM", "endpoint": "viability", "result": "83% and 112%"}
{"SMILES": "N=C(N)NCCC[C@H](NC(=O)[C@H](CCCNC(=N)N)NC(=O)[C@H](CCCNC(=N)N)NC(=O)[C@H](CCC(N)=O)NC(=O)[C@H](CCCNC(=N)N)NC(=O)[C@H](CCCNC(=N)N)NC(=O)[C@H](CCCCN)NC(=O)[C@H](CCCCN)NC(=O)[C@H](CCCNC(=N)N)NC(=O)[C@H](Cc1c[nH]c2ccccc12)NC(=O)[C@H](Cc1c[nH]c2ccccc12)NC(=O)[C@@H](N)CSSC[C@H](N)C(=O)N[C@@H](Cc1c[nH]c2ccccc12)C(=O)N[C@@H](Cc1c[nH]c2ccccc12)C(=O)N[C@@H](CCCNC(=N)N)C(=O)N[C@@H](CCCCN)C(=O)N[C@@H](CCCCN)C(=O)N[C@@H](CCCNC(=N)N)C(=O)N[C@@H](CCCNC(=N)N)C(=O)N[C@@H](CCC(N)=O)C(=O)N[C@@H](CCCNC(=N)N)C(=O)N[C@@H](CCCNC(=N)N)C(=O)N[C@@H](CCCNC(=N)N)C(=O)NCC(N)=O)C(=O)NCC(N)=O", "test": "ELISA", "system": "Ai14 mice, cortex injection site", "setting": "intracortical, dose not given, 3 days", "endpoint": "TNF-alpha level", "result": "< 1 pg/mL"}
{"SMILES": "O=C(O)/C=C\\c1ccc2occc2c1O[C@@H]1O[C@H](CO)[C@@H](O)[C@H](O)[C@H]1O", "test": "post-procedure stability", "system": "rat plasma", "setting": "200 ng/mL, 3 h, room temperature", "endpoint": "accuracy", "result": "110%"}
{"SMILES": "O=C(c1cc(Cc2n[nH]c(=O)c3ccccc23)ccc1F)N1CC(CNC2CC2)C1", "system": "male Wistar Han rat", "setting": "oral, 60 mg/kg, day 1", "endpoint": "Cmax", "result": "6950 ng/mL"}
{"SMILES": "CC[C@H](C)[C@@H]1NC(=O)[C@H](Cc2ccc(O)cc2)NC(=O)CCCSC[C@@H](C(=O)N(CC(=O)N[C@@H](CC(C)C)C(=O)NCC(N)=O)Cc2ccc(F)cc2)NC(=O)[C@H](CC(N)=O)NC(=O)[C@H](CCC(N)=O)NC1=O", "system": "human", "setting": "intranasal, 5 µg single dose", "endpoint": "deaths", "result": "0%"}
{"note": "For quick reference, copied from above:"}
{"SMILES": "Cc1ccc(OCCN(C)C)cc1C(=O)N[C@H](C)c1cc(-c2ccco2)nc2ccccc12", "tested on": "Vero E6", "setting": "125 µM", "endpoint": "viability", "result": "-3.46% and 4.23%"}
{"SMILES": "CC[C@H](C)[C@@H]1NC(=O)[C@H](Cc2ccc(O)cc2)NC(=O)CCCSC[C@@H](C(=O)N(CC(=O)N[C@@H](CC(C)C)C(=O)NCC(N)=O)Cc2ccc(F)cc2)NC(=O)[C@H](CC(N)=O)NC(=O)[C@H](CCC(N)=O)NC1=O", "system": "human", "setting": "intranasal, 5 µg single dose", "endpoint": "deaths", "result": "0%"}
